Measurements from different studies.
Protocols differ between the studies behind these lines. ± gives the spread as reported. In brackets after ≈: the same amount, converted by molar mass.
Organism: Pseudomonas aeruginosa

Compound | test | test system | conditions | how to read | measurement | value
Cc1cc(=O)oc2cc3c(c(C)c12)C(=O)c1c(O)cccc1C3=O |  | MTCC 2453 | 100 µg/disc |  | zone of inhibition | < 8 mm
CCCCCCC[C@@H](O)CC(=O)N[C@H](CCN)C(=O)N[C@H]1CCNC(=O)[C@H](CC(C)C)NC(=O)[C@H](CCN)NC(=O)[C@H](CCN)NC(=O)[C@H](CC(C)C)NC(=O)[C@@H](Cc2ccccc2)NC(=O)[C@H](CCN)NC1=O | static time-kill | FADDI-PA070 polymyxin-resistant | 4 µg/mL, 2 to 6 h | baseline: control | log10 CFU reduction | ~4 log10 CFU/mL
COc1c2c(cc3oc(=O)cc(C)c13)C(=O)c1cc(C)cc(O)c1C2=O |  | MTCC 2453 | 100 µg/disc |  | zone of inhibition | < 8 mm
CC(=O)N[C@H](CCCCN)C(=O)N[C@H](CC(C)C)C(=O)N[C@H](CCCCN)C(=O)N[C@H](CO)C(=O)N[C@H](CC(C)C)C(=O)N[C@H](CC(C)C)C(=O)N[C@H](CCCCN)C(=O)N[C@@H](C(=O)N[C@H](CC(C)C)C(=O)N[C@H](CO)C(=O)N[C@H](CCCCN)C(=O)N[C@H](C)C(=O)N[C@H](CCCCN)C(=O)N[C@H](CCCCN)C(=O)N[C@H](CCCCN)C(=O)N[C@H](CC(C)C)C(=O)N[C@H](CC(C)C)C(=O)N[C@H](CCCCN)C(=O)N[C@@H](C(=O)N[C@H](C)C(=O)N[C@H](CC(C)C)C(=O)N[C@H](CCCCN)C(=O)N[C@H](C)C(=O)N[C@H](CC(C)C)C(=O)N[C@H](CO)C(=O)N[C@H](CCCCN)C(N)=O)[C@H](C)O)[C@H](C)O |  | six isolates | 24 h, 37 °C |  | MIC geometric mean | 1 µM (≈ 2.92 µg/mL)
CC(=NNC(=N)N)c1nnn(-c2ccc(C#CC3(O)CCCCC3)cc2)c1C | crystal violet | ATCC 10145 | MIC |  | biofilm inhibition | 47 ± 0.66%
Oc1cc(C(F)(F)F)ccc1-c1nc2c(C(F)(F)F)cc(C(F)(F)F)cc2[nH]1 | colistin potentiator | TRPA 162, colistin-resistant | 5 µM |  | MIC of colistin | 0.25 µg/mL
CCN(CC)CCSc1nnc(C23CC4CC(CC(C4)C2)C3)n1C |  | IFO 3448 | 200 µg/disc, 24 h, 37 °C |  | inhibition zone diameter | < 10 mm
CC[C@@H](C)[C@@H](NC(=O)[C@@H](C)NC(=O)[C@@H](CCCCN)NC(=O)[C@@H](CC(C)C)NC(=O)[C@@H](CC(C)C)NC(=O)[C@H](NC(=O)[C@@H](CCCCN)NC(=O)[C@@H](CC(C)C)NC(=O)[C@@H](CCCCN)NC(=O)[C@@H](CCCCN)NC(=O)[C@@H](CCCCN)NC(=O)[C@@H](CCCCN)NC(=O)[C@@H](C)NC(=O)[C@@H](CCCCN)NC(=O)[C@@H](CO)NC(=O)[C@@H](Cc1ccccc1)NC(=O)[C@H](NC(=O)[C@@H](CCCCN)NC(=O)[C@@H](CC(C)C)NC(=O)[C@@H](Cc1ccccc1)NC(=O)[C@@H](CO)NC(=O)[C@@H](CCCCN)NC(=O)[C@@H](Cc1c[nH]c2ccccc12)NC(=O)[C@@H](CCCCN)NC(C)=O)[C@H](C)O)[C@H](C)O)C(=O)N[C@H](CO)C(=O)N[C@H](CCCCN)C(N)=O |  | six isolates |  | baseline: HC50 over geometric mean MIC | therapeutic index | 141
CCCCCCCCCCCCCCCCCC(=O)N[C@@H](CCCCN)C(=O)N[C@@H](CCCCN)C(=O)N[C@@H](CCCNC(=N)N)C(=O)N[C@@H](CCCCN)C(=O)N[C@@H](CCCCN)C(N)=O |  | ATCC 27853 |  |  | MBC | 128 µg/mL (≈ 134 µM)
COc1ccc(-c2ccn(CC[C@](C)(C(=O)NO)S(C)(=O)=O)c(=O)c2)c(F)c1 |  | PA-1950, mice acute septicaemia model | subcutaneous |  | ED50 | 7.4 mg/kg
Cc1cc([N+](=O)[O-])ccc1NC(=O)CSc1nc2ccccc2c(=O)n1-c1ccc(S(N)(=O)=O)cc1 | microbial killing | ATCC27 ATCC27853 | 24 h |  | MBC | 4.5 µg/mL (≈ 8.56 µM)

Some of these lines once more:
Compound | test | test system | conditions | how to read | measurement | value
CC[C@@H](C)[C@@H](NC(=O)[C@@H](C)NC(=O)[C@@H](CCCCN)NC(=O)[C@@H](CC(C)C)NC(=O)[C@@H](CC(C)C)NC(=O)[C@H](NC(=O)[C@@H](CCCCN)NC(=O)[C@@H](CC(C)C)NC(=O)[C@@H](CCCCN)NC(=O)[C@@H](CCCCN)NC(=O)[C@@H](CCCCN)NC(=O)[C@@H](CCCCN)NC(=O)[C@@H](C)NC(=O)[C@@H](CCCCN)NC(=O)[C@@H](CO)NC(=O)[C@@H](Cc1ccccc1)NC(=O)[C@H](NC(=O)[C@@H](CCCCN)NC(=O)[C@@H](CC(C)C)NC(=O)[C@@H](Cc1ccccc1)NC(=O)[C@@H](CO)NC(=O)[C@@H](CCCCN)NC(=O)[C@@H](Cc1c[nH]c2ccccc12)NC(=O)[C@@H](CCCCN)NC(C)=O)[C@H](C)O)[C@H](C)O)C(=O)N[C@H](CO)C(=O)N[C@H](CCCCN)C(N)=O |  | six isolates |  | baseline: HC50 over geometric mean MIC | therapeutic index | 141
CCCCCCCCCCCCCCCCCC(=O)N[C@@H](CCCCN)C(=O)N[C@@H](CCCCN)C(=O)N[C@@H](CCCNC(=N)N)C(=O)N[C@@H](CCCCN)C(=O)N[C@@H](CCCCN)C(N)=O |  | ATCC 27853 |  |  | MBC | 128 µg/mL (≈ 134 µM)
